Measurements gathered from unrelated publications.
Each numbered part is a random draw from the data of one study; scales do not carry over between parts.
Chain of UniProt P10721 (whole entry, unmodified, looked up): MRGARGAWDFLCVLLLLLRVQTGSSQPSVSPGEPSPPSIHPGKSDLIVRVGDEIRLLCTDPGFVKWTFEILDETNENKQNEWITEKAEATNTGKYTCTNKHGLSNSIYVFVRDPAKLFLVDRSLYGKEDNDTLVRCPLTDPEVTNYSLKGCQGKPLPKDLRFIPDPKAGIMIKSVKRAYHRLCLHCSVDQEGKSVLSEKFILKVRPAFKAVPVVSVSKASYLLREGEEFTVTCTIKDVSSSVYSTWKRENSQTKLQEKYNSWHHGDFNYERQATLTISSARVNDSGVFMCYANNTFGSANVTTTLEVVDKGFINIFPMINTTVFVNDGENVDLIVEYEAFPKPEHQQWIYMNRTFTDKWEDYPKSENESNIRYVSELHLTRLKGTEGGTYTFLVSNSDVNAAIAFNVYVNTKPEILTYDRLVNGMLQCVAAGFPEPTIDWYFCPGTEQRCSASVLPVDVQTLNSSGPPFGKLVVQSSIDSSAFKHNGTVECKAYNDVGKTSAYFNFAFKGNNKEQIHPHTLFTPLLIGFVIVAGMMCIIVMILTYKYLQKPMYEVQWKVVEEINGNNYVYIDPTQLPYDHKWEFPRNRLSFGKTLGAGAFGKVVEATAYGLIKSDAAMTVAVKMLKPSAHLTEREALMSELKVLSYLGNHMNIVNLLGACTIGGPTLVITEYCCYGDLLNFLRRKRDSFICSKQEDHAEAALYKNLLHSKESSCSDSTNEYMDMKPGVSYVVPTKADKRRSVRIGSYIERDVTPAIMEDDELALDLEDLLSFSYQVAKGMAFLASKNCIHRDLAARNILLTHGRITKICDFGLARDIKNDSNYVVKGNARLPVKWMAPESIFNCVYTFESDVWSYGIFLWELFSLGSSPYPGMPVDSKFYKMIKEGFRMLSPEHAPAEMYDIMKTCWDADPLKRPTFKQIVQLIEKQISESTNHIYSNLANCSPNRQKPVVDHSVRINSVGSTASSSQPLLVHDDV
Chain of UniProt P00519 (whole entry, unmodified, looked up): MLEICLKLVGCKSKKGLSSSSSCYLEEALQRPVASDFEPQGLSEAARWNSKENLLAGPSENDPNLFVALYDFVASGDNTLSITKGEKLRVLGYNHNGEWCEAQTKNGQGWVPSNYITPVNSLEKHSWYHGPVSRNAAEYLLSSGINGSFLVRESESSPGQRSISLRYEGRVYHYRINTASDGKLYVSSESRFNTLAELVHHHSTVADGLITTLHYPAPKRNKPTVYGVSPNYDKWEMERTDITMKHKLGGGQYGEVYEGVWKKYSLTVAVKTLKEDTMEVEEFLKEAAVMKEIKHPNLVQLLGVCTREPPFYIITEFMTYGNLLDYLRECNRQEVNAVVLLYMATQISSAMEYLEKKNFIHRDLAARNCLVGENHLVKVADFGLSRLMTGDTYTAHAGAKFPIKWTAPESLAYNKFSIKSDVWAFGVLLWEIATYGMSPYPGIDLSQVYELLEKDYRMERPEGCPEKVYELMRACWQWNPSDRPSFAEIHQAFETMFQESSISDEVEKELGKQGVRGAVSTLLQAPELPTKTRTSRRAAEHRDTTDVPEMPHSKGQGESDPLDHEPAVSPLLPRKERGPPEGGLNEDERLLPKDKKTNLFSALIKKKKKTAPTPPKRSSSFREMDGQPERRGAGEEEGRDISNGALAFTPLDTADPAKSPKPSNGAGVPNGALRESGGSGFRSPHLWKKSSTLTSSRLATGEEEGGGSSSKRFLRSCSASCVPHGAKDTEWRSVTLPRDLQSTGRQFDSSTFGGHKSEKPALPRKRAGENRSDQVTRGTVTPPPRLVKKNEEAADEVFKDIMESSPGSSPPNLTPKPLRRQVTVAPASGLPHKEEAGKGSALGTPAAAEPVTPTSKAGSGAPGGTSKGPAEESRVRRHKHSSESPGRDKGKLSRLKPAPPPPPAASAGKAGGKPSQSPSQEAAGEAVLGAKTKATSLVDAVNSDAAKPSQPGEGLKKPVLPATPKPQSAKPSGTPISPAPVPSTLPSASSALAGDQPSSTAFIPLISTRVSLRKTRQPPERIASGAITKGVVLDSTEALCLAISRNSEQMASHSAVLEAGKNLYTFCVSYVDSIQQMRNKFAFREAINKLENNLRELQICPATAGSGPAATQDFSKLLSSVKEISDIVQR
Chain of UniProt Q02779 (whole entry, looked up): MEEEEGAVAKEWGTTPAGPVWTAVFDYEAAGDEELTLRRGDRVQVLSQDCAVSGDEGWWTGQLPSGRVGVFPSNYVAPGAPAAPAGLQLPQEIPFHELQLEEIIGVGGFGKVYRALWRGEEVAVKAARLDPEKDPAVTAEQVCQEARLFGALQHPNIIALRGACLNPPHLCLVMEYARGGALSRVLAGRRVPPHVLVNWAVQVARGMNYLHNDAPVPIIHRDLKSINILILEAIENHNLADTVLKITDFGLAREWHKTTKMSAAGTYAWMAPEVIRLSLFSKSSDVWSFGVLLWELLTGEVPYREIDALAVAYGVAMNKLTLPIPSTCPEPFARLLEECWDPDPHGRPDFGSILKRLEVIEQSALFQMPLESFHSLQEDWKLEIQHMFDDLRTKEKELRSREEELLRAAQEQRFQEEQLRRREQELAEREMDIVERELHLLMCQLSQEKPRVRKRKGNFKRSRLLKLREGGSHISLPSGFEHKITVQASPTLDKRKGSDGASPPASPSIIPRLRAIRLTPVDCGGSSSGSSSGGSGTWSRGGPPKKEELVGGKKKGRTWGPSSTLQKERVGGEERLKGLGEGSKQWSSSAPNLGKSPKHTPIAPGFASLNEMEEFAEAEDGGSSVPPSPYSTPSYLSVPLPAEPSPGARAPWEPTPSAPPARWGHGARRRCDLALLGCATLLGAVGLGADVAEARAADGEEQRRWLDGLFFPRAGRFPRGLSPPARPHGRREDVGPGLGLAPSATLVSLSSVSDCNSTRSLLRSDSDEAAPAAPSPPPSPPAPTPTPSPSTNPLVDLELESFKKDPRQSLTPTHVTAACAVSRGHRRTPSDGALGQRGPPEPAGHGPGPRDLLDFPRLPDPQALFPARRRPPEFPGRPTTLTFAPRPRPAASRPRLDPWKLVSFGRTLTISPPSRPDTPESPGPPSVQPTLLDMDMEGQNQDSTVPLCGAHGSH
Chain of UniProt P29320 (whole entry, looked up): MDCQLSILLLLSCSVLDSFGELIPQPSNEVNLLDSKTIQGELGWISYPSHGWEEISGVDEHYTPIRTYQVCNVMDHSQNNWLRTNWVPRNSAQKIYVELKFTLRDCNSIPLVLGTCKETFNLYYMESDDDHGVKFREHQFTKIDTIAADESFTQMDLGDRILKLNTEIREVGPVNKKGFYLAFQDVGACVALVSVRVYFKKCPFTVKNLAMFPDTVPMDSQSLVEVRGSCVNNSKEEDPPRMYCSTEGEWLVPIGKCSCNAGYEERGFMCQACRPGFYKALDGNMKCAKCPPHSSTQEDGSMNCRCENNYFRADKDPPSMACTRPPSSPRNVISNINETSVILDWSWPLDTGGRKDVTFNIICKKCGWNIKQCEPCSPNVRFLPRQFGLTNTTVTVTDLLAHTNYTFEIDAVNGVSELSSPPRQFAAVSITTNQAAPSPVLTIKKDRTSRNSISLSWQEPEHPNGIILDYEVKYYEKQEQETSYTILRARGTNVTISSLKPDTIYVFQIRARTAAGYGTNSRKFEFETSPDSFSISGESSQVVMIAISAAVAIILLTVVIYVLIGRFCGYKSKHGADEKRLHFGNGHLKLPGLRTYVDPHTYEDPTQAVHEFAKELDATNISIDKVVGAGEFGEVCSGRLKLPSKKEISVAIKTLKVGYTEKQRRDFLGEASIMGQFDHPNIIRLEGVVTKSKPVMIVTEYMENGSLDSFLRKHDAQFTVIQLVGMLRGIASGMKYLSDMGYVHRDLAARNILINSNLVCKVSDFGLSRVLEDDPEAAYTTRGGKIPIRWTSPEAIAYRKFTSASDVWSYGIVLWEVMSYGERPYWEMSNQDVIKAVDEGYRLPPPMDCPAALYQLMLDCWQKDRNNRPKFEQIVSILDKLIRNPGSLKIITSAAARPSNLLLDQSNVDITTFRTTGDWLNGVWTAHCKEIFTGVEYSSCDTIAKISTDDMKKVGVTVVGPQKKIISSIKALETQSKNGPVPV
Chain of UniProt Q9H3Y6 (whole entry, looked up): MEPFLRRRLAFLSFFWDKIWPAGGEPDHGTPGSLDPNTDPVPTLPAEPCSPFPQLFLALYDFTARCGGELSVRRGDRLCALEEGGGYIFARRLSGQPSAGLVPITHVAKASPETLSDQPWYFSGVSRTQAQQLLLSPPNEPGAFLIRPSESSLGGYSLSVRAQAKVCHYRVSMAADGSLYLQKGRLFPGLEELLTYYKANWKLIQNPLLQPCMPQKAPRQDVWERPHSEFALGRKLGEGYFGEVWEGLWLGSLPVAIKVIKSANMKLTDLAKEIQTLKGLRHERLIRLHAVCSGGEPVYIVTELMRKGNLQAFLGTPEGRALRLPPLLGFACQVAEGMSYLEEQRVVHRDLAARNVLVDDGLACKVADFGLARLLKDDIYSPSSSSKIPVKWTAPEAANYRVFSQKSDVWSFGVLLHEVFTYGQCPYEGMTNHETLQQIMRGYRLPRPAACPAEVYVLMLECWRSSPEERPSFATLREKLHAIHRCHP

Set 1
Target: Calcium/calmodulin-dependent protein kinase type II subunit alpha (CAMK2A, Homo sapiens, UniProt Q9UQM7)
Chain of UniProt Q9UQM7 (whole entry, looked up): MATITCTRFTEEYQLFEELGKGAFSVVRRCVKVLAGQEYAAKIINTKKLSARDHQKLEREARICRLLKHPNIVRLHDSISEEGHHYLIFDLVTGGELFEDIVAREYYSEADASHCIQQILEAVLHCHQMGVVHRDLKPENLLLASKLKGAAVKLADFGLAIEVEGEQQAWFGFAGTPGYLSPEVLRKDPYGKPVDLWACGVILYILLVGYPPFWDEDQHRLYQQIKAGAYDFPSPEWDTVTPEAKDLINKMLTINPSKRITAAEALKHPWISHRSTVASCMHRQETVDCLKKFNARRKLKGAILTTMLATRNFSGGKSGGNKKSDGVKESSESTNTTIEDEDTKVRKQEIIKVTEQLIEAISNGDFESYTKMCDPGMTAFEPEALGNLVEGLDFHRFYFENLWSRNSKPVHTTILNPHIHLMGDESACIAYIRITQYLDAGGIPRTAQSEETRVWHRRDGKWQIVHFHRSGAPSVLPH
Effect on: enzyme activity
Action: inhibitor
Tested at: 10 µM
The inhibition of `OCc1ccccc1O` is reported as -2%.
`CC(C(=O)O)c1ccccc1` (centres unmarked) has an inhibition of 16%.
`O=C(CCC/C=C\C[C@@H]1[C@@H](CC[C@@H](O)CCc2ccccc2)[C@H](O)C[C@@H]1O)OCCCCO[N+](=O)[O-]` gave an inhibition of -5%.
For `COc1ccc(-c2cc(=S)ss2)cc1`, the inhibition was 2%.
`COc1c(-c2ccc3cc(NS(C)(=O)=O)ccc3c2)cc(-n2ccc(=O)[nH]c2=O)cc1C(C)(C)C` gave an inhibition of 3%.
For `COc1cc(OC)cc(OC)c1`, the inhibition was 4%.
`CCOC(=O)/C=C/c1ccc(O)c(OC)c1` has an inhibition of 11%.
With `Cc1occc(=O)c1O` the inhibition was -22%.
For `O=C1c2c(O)cc(O)cc2O[C@H](c2ccc(O)cc2)[C@H]1O`, the inhibition was 14%.
`CC(=O)OC[C@H]1O[C@@H](O[C@@H]2[C@@H](O)[C@H](O[C@@H]3[C@H](O)C(C)(C)C[C@H]4C5=CC[C@@H]6[C@@]7(C)CC[C@H](O[C@@H]8O[C@H](C(=O)O)[C@@H](O)[C@H](O)[C@H]8O[C@@H]8O[C@H](CO)[C@H](O)[C@H](O)[C@H]8O[C@@H]8O[C@H](CO)[C@@H](O)[C@H](O)[C@H]8O)[C@](C)(CO)[C@@H]7CC[C@@]6(C)[C@]5(C)CC[C@@]34C)OC[C@@H]2O)[C@H](OC(C)=O)[C@@H](OC(C)=O)[C@@H]1OC(C)=O` gave an inhibition of -15%.

Set 2
Target: panel of 300 human kinases
Tested at: 0.5 µM
Reading: higher = more selective
`NC(=O)c1ccc2nc(-c3ccc(Oc4ccc(Cl)cc4)cc3)[nH]c2c1` gave a Gini score of 0.63.
The Gini score of `Nc1ncnc2c1cnn2-c1ccccc1` is reported as 0.55.
For `Cc1cncc2cccc(S(=O)(=O)N3CCCN(C(=O)CN)C[C@@H]3C)c12`, the Gini score was 0.74.
`O=S(=O)(NCCNC/C=C/c1ccc(Br)cc1)c1cccc2cnccc12` has a Gini score of 0.65.
`CC(=O)c1ccc(N2CCOCC2)cc1O` has a Gini score of 0.73.
`Cc1cc(C)c(C=C2C(=O)Nc3ccccc32)[nH]1` gave a Gini score of 0.6.
`Nc1cccc(-c2cc3c(Oc4cccc(O)c4)ncnc3[nH]2)c1` gave a Gini score of 0.62.

Set 3
Structure (SMILES): CCS(=O)(=O)c1cc2cc(C[C@@](O)(CC(C)(C)c3ccc(F)cc3C(N)=O)C(F)(F)F)[nH]c2cn1
Technique: competition with immobilised ligand
Tested at: 1 µM
The remaining binding was 0% (Serine/threonine-protein kinase tousled-like 1 (TLK1, Homo sapiens, UniProt Q9UKI8); cell-free assay).
It gave 100% for remaining binding (Mast/stem cell growth factor receptor Kit, autoinhibited (KIT, Homo sapiens, UniProt P10721); cell-free assay).
Ephrin type-A receptor 3 (EPHA3, Homo sapiens, UniProt P29320); cell-free assay — remaining binding: 85%.
For Mast/stem cell growth factor receptor Kit (KIT, Homo sapiens, UniProt P10721, T670I/V559D); cell-free assay: remaining binding read 100%.
The remaining binding was 100% (MAP/microtubule affinity-regulating kinase 3 (MARK3, Homo sapiens, UniProt P27448); cell-free assay).
Mitogen-activated protein kinase kinase kinase 1 (MAP3K1, Homo sapiens, UniProt Q13233); cell-free assay — remaining binding: 51%.
For Tyrosine-protein kinase Srms (SRMS, Homo sapiens, UniProt Q9H3Y6); cell-free assay: remaining binding read 72%.
cAMP-dependent protein kinase catalytic subunit beta (PRKACB, Homo sapiens, UniProt P22694); cell-free assay — remaining binding: 99%.
For Microtubule-associated serine/threonine-protein kinase 1 (MAST1, Homo sapiens, UniProt Q9Y2H9); cell-free assay: remaining binding read 100%.
For Wee1-like protein kinase 2 (WEE2, Homo sapiens, UniProt P0C1S8); cell-free assay: remaining binding read 95%.
Mitogen-activated protein kinase kinase kinase 10 (MAP3K10, Homo sapiens, UniProt Q02779); cell-free assay — remaining binding: 65%.
For Tyrosine-protein kinase ABL1, phosphorylated (ABL1, Homo sapiens, UniProt P00519, F317L); cell-free assay: remaining binding read 61%.
For Phosphatidylinositol 5-phosphate 4-kinase type-2 beta (PIP4K2B, Homo sapiens, UniProt P78356); cell-free assay: remaining binding read 85%.
The remaining binding was 96% (Proto-oncogene tyrosine-protein kinase receptor Ret (RET, Homo sapiens, UniProt P07949, V804L); cell-free assay).
For Mitogen-activated protein kinase kinase kinase kinase 5 (MAP4K5, Homo sapiens, UniProt Q9Y4K4); cell-free assay: remaining binding read 99%.
Death-associated protein kinase 2 (DAPK2, Homo sapiens, UniProt Q9UIK4); cell-free assay — remaining binding: 100%.
It gave 100% for remaining binding (Serine/threonine-protein kinase Nek11 (NEK11, Homo sapiens, UniProt Q8NG66); cell-free assay).
The remaining binding was 78% (Tyrosine-protein kinase ABL1, non-phosphorylated (ABL1, Homo sapiens, UniProt P00519, F317I); binding).
For Mast/stem cell growth factor receptor Kit (KIT, Homo sapiens, UniProt P10721, L576P); cell-free assay: remaining binding read 100%.
For 3-phosphoinositide-dependent protein kinase 1 (PDPK1, Homo sapiens, UniProt O15530); cell-free assay: remaining binding read 100%.
For Serine/threonine-protein kinase 32C (STK32C, Homo sapiens, UniProt Q86UX6); cell-free assay: remaining binding read 90%.
cAMP-dependent protein kinase catalytic subunit alpha (PRKACA, Homo sapiens, UniProt P17612); cell-free assay — remaining binding: 100%.
It gave 97% for remaining binding (TRAF2 and NCK-interacting protein kinase (TNIK, Homo sapiens, UniProt Q9UKE5); cell-free assay).
It gave 80% for remaining binding (Serine/threonine-protein kinase 17A (STK17A, Homo sapiens, UniProt Q9UEE5); cell-free assay).

Set 4
SMILES: O=C(Nc1cnn(-c2csc(C(=O)NC3COC3)c2)c1)Nc1ccccc1Cl
Tested at: 5 µM
For Serine/threonine-protein kinase D3 (PRKD3, Homo sapiens, UniProt O94806); enzyme activity; baseline: untreated control: remaining activity read 101%.
Serine/threonine-protein kinase greatwall (MASTL, Homo sapiens, UniProt Q96GX5); enzyme activity, inhibitor — remaining activity: 96.7%.
It gave 97.2% for remaining activity (Homeodomain-interacting protein kinase 4 (HIPK4, Homo sapiens, UniProt Q8NE63); enzyme activity; baseline: untreated control).
For Dual specificity tyrosine-phosphorylation-regulated kinase 1A (DYRK1A, Homo sapiens, UniProt Q13627); enzyme activity; baseline: untreated control: remaining activity read 85.5%.
For Mitogen-activated protein kinase kinase kinase 9 (MAP3K9, Homo sapiens, UniProt P80192); enzyme activity; baseline: untreated control: remaining activity read 94.2%.
It gave 93.9% for remaining activity (Ephrin type-A receptor 5 (EPHA5, Homo sapiens, UniProt P54756); enzyme activity; baseline: untreated control).
SRSF protein kinase 3 (SRPK3, Homo sapiens, UniProt Q9UPE1); kinase activity, kinase panel profiling — remaining activity: 91.9%.
It gave 88.4% for remaining activity (Receptor-type tyrosine-protein kinase FLT3 (FLT3, Homo sapiens, UniProt P36888); enzyme activity; baseline: untreated control).
The remaining activity was 96.1% (Tyrosine-protein kinase Fes/Fps (FES, Homo sapiens, UniProt P07332); enzyme activity; baseline: untreated control).
